{"data": "Experimental data of several laboratories", "note": "Each line is one published result; not all experiments were run side by side. “And” joins repeats or separate records; there may be more than shown. ± marks the error that the study gave."}
{"SMILES": "CC(C)(C)OC(=O)N1CCC(OCc2nc(-c3ccncc3)no2)CC1", "test": "short-circuit current reduction, agonist, Ussing chamber", "test system": "mouse descending colon mucosa", "setting": "apical addition, with: VIP 10 nM", "EC50": "4800 nM"}
{"SMILES": "COc1cc(-c2cn(-c3ccc(C(C)(C)C)cc3)nn2)[nH]c1/C=N/CCO", "test": "chloride/lactate exchange, ISE chloride efflux", "test system": "POPC vesicles 0.5 mM", "setting": "300 s, pH 7.2, with: sodium lactate 40 mM", "EC50": "7660 ± 547 nM"}
{"SMILES": "O=Cc1ccc(CO)o1", "test": "hydroxyl radical scavenging, in vitro", "setting": "50% scavenging", "EC50": "> 20000 nM"}
{"SMILES": "Cc1ccc(Cl)cc1NC(=O)c1cc(-c2ccc(F)c(O)c2)on1", "test": "membrane potential, rhodamine uptake", "test system": "isolated mouse liver mitochondria", "EC50": "> 100000 nM"}
{"SMILES": "CCCCNC(=O)C(=O)NCCCC/C=C\\CCCCCCC(=O)O", "test": "vasorelaxation", "test system": "bovine coronary artery rings", "setting": "with: U46619", "EC50": "1700 nM"}
{"SMILES": "COc1c(-c2ccc(O)c(O)c2)oc2cc(O)cc(OC)c2c1=O", "test": "hydroxyl radical scavenging, in vitro", "setting": "50% scavenging", "EC50": "180 nM"}
{"SMILES": "CCCCCCC(=O)N(CCCC/C=C\\CCCCCCC(=O)O)C(C)C", "test": "vasorelaxation", "test system": "bovine coronary artery rings", "setting": "with: U46619", "EC50": "1700 nM"}
{"SMILES": "CC(C)C[C@H](NC(=O)[C@H]1O[C@@H]1C(=O)O)C(=O)NCCCCN=C(N)N", "test": "LTP rescue", "test system": "mouse hippocampal slices", "setting": "20 min, with: oligomerized Aβ42", "EC50": "650 nM"}
{"SMILES": "O=[N+]([O-])c1ccc2ccc3c([N+](=O)[O-])ccc4ccc1c2c43", "test": "developmental toxicity", "test system": "zebrafish (Danio rerio) embryos", "setting": "6 to 120 hpf", "EC50": "880 nM"}
{"SMILES": "O=c1c(O)c(-c2ccc(O)c(O)c2)oc2cc(O)cc(O)c12", "test": "hydroxyl radical scavenging, in vitro", "setting": "50% scavenging", "EC50": "1200 ± 110 nM"}
{"SMILES": "C=CC(=O)N1CCC(Oc2cc3c(Nc4ccc(Cl)c(Cl)c4F)ncnc3cc2OC)CC1", "test": "cell proliferation, inhibitor", "test system": "Ba/F3 expressing EGFR V769_D770insASV, Mus musculus", "EC50": "5.1 ± 0.2 nM"}
{"SMILES": "Cc1c(Cl)cccc1NC(=O)c1cc(-c2ccc(F)c(O)c2)on1", "test": "membrane potential, rhodamine uptake", "test system": "isolated mouse liver mitochondria", "EC50": "> 100000 nM"}
{"SMILES": "COc1cc(-c2cn(-c3ccc(C(C)(C)C)cc3)nn2)[nH]c1/C=N/C1CCCC1", "test": "chloride/lactate exchange, ISE chloride efflux", "test system": "POPC vesicles 0.5 mM", "setting": "300 s, pH 7.2, with: sodium lactate 40 mM", "EC50": "34 ± 4 nM"}
{"SMILES": "COc1cc2c(Nc3ccc(Br)cc3F)ncnc2cc1OCC1CCN(C)CC1", "test": "subintestinal vessel angiogenesis, inhibitor", "test system": "Danio rerio embryo", "setting": "96 hpf, 50% vessel length reduction", "EC50": "10000 nM"}
{"SMILES": "c1ccc2nc3ccccc3cc2c1", "test": "developmental toxicity", "test system": "zebrafish (Danio rerio) embryos", "setting": "6 to 120 hpf", "EC50": "13500 nM"}
{"SMILES": "CC(=O)c1c(O)cc(O)cc1O[C@@H]1O[C@H](CO)[C@@H](O)[C@H](O)[C@H]1O", "test": "hydroxyl radical scavenging, in vitro", "setting": "50% scavenging", "EC50": "1400 ± 160 nM"}
{"SMILES": "Nc1cc2ccccc2c2ccccc12", "test": "developmental toxicity", "test system": "zebrafish (Danio rerio) embryos", "setting": "6 to 120 hpf", "EC50": "8680 nM"}
{"SMILES": "O=Cc1c(O)cc(O)cc1O[C@@H]1O[C@H](CO)[C@@H](O)[C@H](O)[C@H]1O", "test": "hydroxyl radical scavenging, in vitro", "setting": "50% scavenging", "EC50": "1300 ± 120 nM"}
{"SMILES": "c1cnc2cc3c(cc2n1)[C@@H]1CNC[C@H]3C1", "test": "dopamine release, releaser, item: [3H]dopamine", "test system": "rat striatal synaptosomes", "EC50": "50 nM"}
{"SMILES": "COC(=O)CC(O)(CC(=O)OC)C(=O)O", "test": "hydroxyl radical scavenging, in vitro", "setting": "50% scavenging", "EC50": "> 20000 nM"}
{"SMILES": "O=C(O)CCCc1ccc2ccc3cccc4ccc1c2c34", "test": "carboxyfluorescein transport, carrier", "test system": "egg PC vesicles", "setting": "pH 7.5, 25 °C, with: 1 µM Trp-Arg7", "EC50": "103000 nM"}
{"SMILES": "O=c1c(O[C@@H]2O[C@@H](CO)[C@H](O)[C@H]2O)c(-c2ccc(O)c(O)c2)oc2cc(O)cc(O)c12", "test": "hydroxyl radical scavenging, in vitro", "setting": "50% scavenging", "EC50": "460 ± 50 nM"}
{"SMILES": "COc1cc2nccc(Oc3ccc(NC(=O)C4(C(=O)Nc5ccc(F)cc5)CC4)cc3)c2cc1OC", "test": "subintestinal vessel angiogenesis, inhibitor", "test system": "Danio rerio embryo", "setting": "96 hpf, 50% vessel length reduction", "EC50": "100 nM"}
{"SMILES": "CC1CNc2c(cccc2S(=O)(=O)N[C@@H](CCCNC(=N)N)C(=O)N2CC[C@@H](C)C[C@@H]2C(=O)O)C1 (stereo partly drawn)", "test": "platelet activation, inhibitor, flow cytometry, item: CD62P", "test system": "mouse whole blood", "setting": "20% whole blood, with: thrombin", "EC50": "47 nM"}
{"SMILES": "O=c1c(O[C@@H]2O[C@H](CO)[C@H](O)[C@H](O)[C@H]2O)c(-c2ccc(O)c(O)c2)oc2cc(O)cc(O)c12", "test": "hydroxyl radical scavenging, in vitro", "setting": "50% scavenging", "EC50": "170 nM"}
{"SMILES": "[H]/N=C(/N)c1ccc(NCc2nc3cc(C(=O)N(CCC(=O)O)c4ccccn4)ccc3n2C)cc1", "test": "platelet activation, inhibitor, item: ATP release", "test system": "rat platelet-rich plasma", "setting": "20% plasma, with: thrombin", "EC50": "33 nM"}
{"SMILES": "CN(C)CCCNC(=O)[C@@H](N)CSSC[C@H](N)C(=O)NCCCN(C)C", "test": "L-cystine solubility", "setting": "72 h, 20 °C", "EC50": "114 nM"}
{"SMILES": "Clc1ccc(Nc2nnc(Cc3ccncc3)c3ccccc23)cc1", "test": "subintestinal vessel angiogenesis, inhibitor", "test system": "Danio rerio embryo", "setting": "96 hpf, 50% vessel length reduction", "EC50": "100 nM"}
{"SMILES": "O=C(NC[C@H]1CN(c2ccc(N3CCOCC3=O)cc2)C(=O)O1)c1ccc(Cl)s1", "test": "platelet activation, inhibitor, flow cytometry, item: CD62P", "test system": "human whole blood", "setting": "with: tissue factor", "EC50": "31 nM"}
{"SMILES": "NCCCC[C@@H]1NC(=O)[C@@H](Cc2c[nH]c3ccccc23)NC(=O)[C@H](c2ccccc2)NC(=O)[C@@H]2C[C@@H](OC(=O)NCCN)CN2C(=O)[C@H](Cc2ccccc2)NC(=O)[C@H](Cc2ccc(OCc3ccccc3)cc2)NC1=O", "test": "item: GH AUC", "test system": "healthy volunteers, plasma", "setting": "subcutaneous, with: GHRH", "EC50": "0.33 ng/mL and 0.3 ng/mL"}
{"note": "Some of these lines once more:"}
{"SMILES": "O=[N+]([O-])c1ccc2ccc3c([N+](=O)[O-])ccc4ccc1c2c43", "test": "developmental toxicity", "test system": "zebrafish (Danio rerio) embryos", "setting": "6 to 120 hpf", "EC50": "880 nM"}
{"SMILES": "O=c1c(O)c(-c2ccc(O)c(O)c2)oc2cc(O)cc(O)c12", "test": "hydroxyl radical scavenging, in vitro", "setting": "50% scavenging", "EC50": "1200 ± 110 nM"}
{"SMILES": "C=CC(=O)N1CCC(Oc2cc3c(Nc4ccc(Cl)c(Cl)c4F)ncnc3cc2OC)CC1", "test": "cell proliferation, inhibitor", "test system": "Ba/F3 expressing EGFR V769_D770insASV, Mus musculus", "EC50": "5.1 ± 0.2 nM"}
{"SMILES": "Cc1c(Cl)cccc1NC(=O)c1cc(-c2ccc(F)c(O)c2)on1", "test": "membrane potential, rhodamine uptake", "test system": "isolated mouse liver mitochondria", "EC50": "> 100000 nM"}
{"SMILES": "COc1cc(-c2cn(-c3ccc(C(C)(C)C)cc3)nn2)[nH]c1/C=N/C1CCCC1", "test": "chloride/lactate exchange, ISE chloride efflux", "test system": "POPC vesicles 0.5 mM", "setting": "300 s, pH 7.2, with: sodium lactate 40 mM", "EC50": "34 ± 4 nM"}
